Measurements collected from several papers.
A part holds a random share of what one study measured.

Study 1 — method: aptamer microarray, sandwich; form: DNA with 2'F-ANA; medium: in vitro; concentration: 200 nM; with: Cy3 exosite-II aptamer, 400 nM; direction: higher = stronger binding; oligonucleotide: GGTTGGTGTGGTTGG
Target: Prothrombin, mature alpha-thrombin (F2, Homo sapiens, UniProt P00734)
Setting: whole 15-mer aptamer, many near background
| Modification | mean fluorescence intensity [a.u.] |
| --- | --- |
| 2'F-ANA at 1 2 4 8 10 14 | 54.3 |
| 2'F-ANA at 1 3 7 8 10 11 13 | 80.1 |
| 2'F-ANA at 1 4 5 6 10 13 14 15 | 47.2 |
| 2'F-ANA at 2 5 7 10 11 15 | 71.6 |
| 2'F-ANA at 5 6 7 8 11 12 13 14 | 47.9 |
| 2'F-ANA at 1 2 4 5 9 10 13 15 | 63.9 |
| 2'F-ANA at 1 2 4 8 9 10 12 13 | 53.8 |
| 2'F-ANA at 1 2 4 5 7 8 9 10 11 12 14 15 | 49.1 |
| 2'F-ANA at 1 2 4 7 9 10 11 13 15 | 55.8 |
| 2'F-ANA at 1 3 4 7 10 11 13 14 | 73.5 |
| 2'F-ANA at 1 4 6 10 12 13 14 15 | 51.5 |
| 2'F-ANA at 2 3 6 9 10 13 14 | 251 |
| 2'F-ANA at 1 2 3 4 6 7 8 15 | 191 |
| 2'F-ANA at 3 5 7 14 15 | 105 |
| 2'F-ANA at 1 2 4 6 8 11 12 13 14 | 54.1 |
| 2'F-ANA at 1 6 11 12 13 14 | 63.6 |
| 2'F-ANA at 1 3 4 10 11 | 130 |
| 2'F-ANA at 5 6 8 9 10 11 12 | 68 |
| 2'F-ANA at 1 3 4 8 9 | 244 |
| 2'F-ANA at 2 6 9 10 11 14 | 88.5 |
| 2'F-ANA at 1 2 4 5 6 10 11 12 | 61.7 |
| 2'F-ANA at 2 3 7 13 15 | 820 |
| 2'F-ANA at 1 9 14 | 152 |
| 2'F-ANA at 2 3 8 9 12 13 14 15 | 441 |
| 2'F-ANA at 1 3 9 10 12 13 14 15 | 65.1 |

Study 2 — method: protein binding microarray; form: double-stranded DNA, one strand shown; medium: in vitro; concentration: not given; baseline: not given; direction: higher = stronger binding
Target: Histone acetyltransferase KAT6A, winged helix 2, GST fusion (KAT6A, Homo sapiens, UniProt Q92794, residues 85-181)
Setting: 8-mer, flanks averaged, mean of 2 arrays, mostly near background
Residues (chain): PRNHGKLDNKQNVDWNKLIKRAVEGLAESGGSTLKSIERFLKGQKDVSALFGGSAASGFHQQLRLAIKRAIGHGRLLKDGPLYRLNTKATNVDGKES
| Oligonucleotide | E-score |
| --- | --- |
| CAGCCCGC | 0.0943 |
| ATAACGTA | -0.125 |
| ACTAACGG | 0.0182 |
| ATTTATTA | 0.0205 |
| TCCTAAAA | 0.0842 |
| CAATGAAC | -0.0695 |
| TAATTCCA | 0.0719 |
| CCCACGAG | 0.124 |
| AAACAGTG | -0.0407 |
| CACATTGA | -0.152 |
| ATGGGCCG | -0.0762 |
| AGTCTAAT | -0.0821 |
| CCAATGAA | -0.183 |
| ACATCGAC | -0.0179 |
| ACGATTCC | -0.0961 |
| CTTCTTGA | 0.0348 |
| GGTGTTGA | -0.119 |
| CCATGGGC | -0.0561 |

Study 3 — method: competition protein-binding microarray; form: double-stranded DNA, one strand shown; medium: in vitro; concentration: 2 µM; with: Pho4 competitor, 0.05 µM; direction: higher = stronger binding; constant ends, left off below: … GTCTTGATTCGCTTGACGCTGCTG
Target: Centromere-binding protein 1, full length, His-tagged (CBF1, Saccharomyces cerevisiae, UniProt P17106, residues 1-351)
UniProt P17106, sequence (whole entry, looked up): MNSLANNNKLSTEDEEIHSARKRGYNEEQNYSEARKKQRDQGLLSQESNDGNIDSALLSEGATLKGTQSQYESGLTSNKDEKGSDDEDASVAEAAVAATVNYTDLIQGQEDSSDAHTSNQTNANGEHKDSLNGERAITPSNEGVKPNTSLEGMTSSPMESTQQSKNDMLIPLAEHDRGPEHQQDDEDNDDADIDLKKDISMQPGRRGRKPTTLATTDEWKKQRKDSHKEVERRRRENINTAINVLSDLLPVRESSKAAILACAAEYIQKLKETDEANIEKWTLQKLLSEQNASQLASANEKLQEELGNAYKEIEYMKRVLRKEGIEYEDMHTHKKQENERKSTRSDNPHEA
Setting: whole 60-bp probe, lowest competitor level
| Oligonucleotide | fluorescence intensity |
| --- | --- |
| TGCGCAACAACTTGTCACCGCACTTTATGTCTAGAA | 75.1 a.u. |
| CATACCCAACCTTGTATCGTGGGTGAAGATATTTGT | 77.4 a.u. |
| TACTTGGTAAGTACCCACGCAGCCAATAGTGTCTCG | 53.9 a.u. |
| CGGGGTTAAGTTTGAGCGGTGGGTGGCTTGCAGCAG | 54.1 a.u. |
| TAACATAGAATTCTTCACGTGGTCGAAATATGTATA | 2720 a.u. |
| ATACTCACAATAATACATGTGTCTTAGAACCTCAGT | 129 a.u. |
| CGGGGTTAAGTTTGTCACAGGACTTGCTTGCAGCAG | 101 a.u. |
| ATAAATCGTTGGAGTGACCTGGCGTTGGGGTAATTC | 85 a.u. |
| CTTTCCCGATCTTTTCACGTGGGATTAGCACATTTG | 596 a.u. |
| TTTTTTGCGTCCTACAGCGTGATGGAAATTTCGCCT | 164 a.u. |
| TATAATATCCGTTCGCATGTGAGTTGGCGACCTTTG | 91.5 a.u. |
| AACGAAGAAAACGGCCACGTTAAACACTTTGTTAGG | 96.6 a.u. |
| CGGGGTTAAGTTTGCTACGTGGGTGGCTTGCAGCAG | 71.7 a.u. |
| CTTTCCCGATCTTTTCACGTGCCATTAGCACATTTG | 1270 a.u. |
| GTTGTTCCATGCTCAGTTGTGATATTGAATGCCCTC | 76.2 a.u. |
| TGTCAATGTCGCCGTCACATGGGAAGAAAGGTGGGA | 460 a.u. |
| TTGCATATTGTTACCCACGGCTTCTAGCAACATGGA | 59 a.u. |
| AGAATTGGAAACCATCACGTACTCCGCCACCAGCAA | 78.4 a.u. |
| CTAACGAAGGTTTGTCACCAAACTTACAAGCCAAGT | 76.2 a.u. |
| AAAGCGGTAATTTGCCACGTGTTTTCACATATCTAT | 1430 a.u. |
| TCTGGGTGTAACATTCAGATGCGGGCGTCATTTATT | 67.7 a.u. |
| GTCTTGTCTCATTACCACGTGTTTTTCCCCACTTCA | 1400 a.u. |
| ATAAAGTGCGTAATGTGCGTGCTAAAAAAGCTCACT | 104 a.u. |
| TTAAAACAGAATCGGCACGTGTCCTGATTGCTTCCG | 2500 a.u. |
| CAGGGCATCTCGAGCATCGTGGAGGAGATCCCTGTC | 47.6 a.u. |

Study 4 — method: universal PBM; form: double-stranded DNA, one strand shown; medium: in vitro; concentration: not given; direction: higher = stronger binding
Target: Sal-like protein 4, full length isoform B (SALL4, Homo sapiens, UniProt Q9UJQ4-2, residues 1-616)
Setting: 8-mer, flanks averaged, mean of replicates
Construct (chain): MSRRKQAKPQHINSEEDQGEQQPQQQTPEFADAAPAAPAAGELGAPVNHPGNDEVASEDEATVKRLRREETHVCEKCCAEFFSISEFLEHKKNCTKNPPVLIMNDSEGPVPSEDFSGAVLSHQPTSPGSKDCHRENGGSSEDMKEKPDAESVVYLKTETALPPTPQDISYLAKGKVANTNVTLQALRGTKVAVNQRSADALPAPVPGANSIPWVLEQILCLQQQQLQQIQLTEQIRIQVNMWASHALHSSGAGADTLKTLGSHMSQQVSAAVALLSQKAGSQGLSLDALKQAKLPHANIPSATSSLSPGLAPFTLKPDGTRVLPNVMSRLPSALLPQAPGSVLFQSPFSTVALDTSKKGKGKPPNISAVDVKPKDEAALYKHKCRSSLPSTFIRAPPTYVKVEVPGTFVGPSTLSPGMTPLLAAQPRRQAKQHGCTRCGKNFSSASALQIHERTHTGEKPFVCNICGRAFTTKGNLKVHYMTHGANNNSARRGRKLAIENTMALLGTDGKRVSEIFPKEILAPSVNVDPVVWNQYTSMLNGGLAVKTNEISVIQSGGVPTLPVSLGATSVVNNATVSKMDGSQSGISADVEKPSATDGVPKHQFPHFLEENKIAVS
| Oligonucleotide | E-score |
| --- | --- |
| GATAGAAA | 0.0902 |
| AAACAGGG | -0.125 |
| GGTCCACA | -0.21 |
| AGAGTCGC | -0.218 |
| CTGGTCTA | -0.107 |
| ATGAGCGG | -0.0958 |
| ATGTGCGG | -0.113 |
| AATAATGG | 0.281 |
| GCCAGCAC | -0.206 |
| CACCTATC | 0.0486 |
| CCCACTGC | -0.173 |
| ACCATTCA | 0.103 |
| CAAGACGG | -0.229 |
| ATCAGATG | 0.0769 |
| CGAGACTA | 0.0783 |
| ACTACACA | 0.245 |

Repeated from above (study 4):
| Oligonucleotide | E-score |
| --- | --- |
| ATGAGCGG | -0.0958 |
| CCCACTGC | -0.173 |
| AATAATGG | 0.281 |
| ACCATTCA | 0.103 |
| GATAGAAA | 0.0902 |
| AGAGTCGC | -0.218 |
| AAACAGGG | -0.125 |
| ACTACACA | 0.245 |
| ATGTGCGG | -0.113 |
